Assay results gathered from unrelated publications.
Numbered parts are unrelated; each lists some results of a single study.

Study 1
Target: Centromere-binding protein 1, full length, His-tagged (CBF1, Saccharomyces cerevisiae, UniProt P17106, residues 1-351)
UniProt P17106, sequence (whole entry, looked up): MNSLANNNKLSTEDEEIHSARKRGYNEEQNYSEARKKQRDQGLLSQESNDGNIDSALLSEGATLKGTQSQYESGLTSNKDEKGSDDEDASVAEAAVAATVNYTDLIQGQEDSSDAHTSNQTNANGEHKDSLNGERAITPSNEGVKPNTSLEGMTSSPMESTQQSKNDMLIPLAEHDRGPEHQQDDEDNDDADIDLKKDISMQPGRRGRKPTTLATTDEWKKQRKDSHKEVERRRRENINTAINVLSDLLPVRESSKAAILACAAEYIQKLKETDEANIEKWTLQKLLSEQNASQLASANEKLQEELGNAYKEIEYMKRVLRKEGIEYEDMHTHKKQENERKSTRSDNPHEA
Method: competition protein-binding microarray
Form: double-stranded DNA, one strand shown
Sample: in vitro
Concentration: 2 µM
Notes: whole 60-bp probe, lowest competitor level
With: Pho4 competitor, 0.05 µM
Direction: higher = stronger binding
Shared flanks, not repeated: … GTCTTGATTCGCTTGACGCTGCTG
| Sequence | fluorescence intensity [a.u.] |
| --- | --- |
| CTTCTGTAAATTTCACACGTGTTTTGACGCGCCCCG | 952 |
| AGAAACAACACTACTGCTGTGACAGTTCAAATCGGT | 69.1 |
| AAACTGGGAGAAAGTGACGTGATGGAGGAAATTATG | 97.3 |
| GCGCTGTTCTGCGGATGCGTGACGGTATCCGCAAAG | 88.7 |
| CAGCGGATTCCCGAGCACATGGAGTCGCTGAACGGC | 63.5 |
| CCCATCCGGTAGGTGCATGTGTGCCTCTGCAGGACG | 69 |
| ACATCTGGGCAAATCGTCGTGCGGAAAATGAATTTG | 68.5 |
| AAATTACTAAGTTGTCACCTTACTTACCCCGTATGA | 75.3 |
| TATGTGTCCAAGAGACACATGAGCCCAAAAAGGGTA | 78 |
| CATACCCAACCTTTTCACGTGGCCTAAGATATTTGT | 1060 |
| GCTATTCGTTTTATAAATGAAGTTCTTTCCACAAGT | 88.2 |
| TGACTCAAAATATTTGACATACTGTTCTATGGCTTT | 71 |
| ACCTTCTAATTTTGGAGCGTGACGAATGGCCTCAAT | 186 |
| AATGAAGACCGGGAATTCGTGCCGAGTTCGAGTTTG | 70.4 |
| CGTCCTAGCGATTGACTGGTGGGTGCCATGAGGAAG | 67.4 |
| GTCTTGTCTCATTGAGCAGTGGGTGTCCCCACTTCA | 77.3 |
| ACCCCGCTTCCACCGCCGTTGTTGTTGTTGTTGTTG | 79.4 |
| GCCCTCGGCGGGGGCCACGTGGCTCTCAGGCGCCTG | 659 |
| GCACCATTTGCCCATCACGTCCAACGGTAGTGGTCC | 70.5 |
| CATACCCAACCTTGAGCGGTGGGTGAAGATATTTGT | 63.1 |
| GAACAATATCCGAGTCACGTGAAATTTAGATAAGCA | 8370 |
| CTTTCCCGATCTTGAGATGTGGGTGTAGCACATTTG | 67.4 |
| TGCGCAACAACTTGCCCTGTGGGTGTATGTCTAGAA | 61.2 |
| CTTTCCCGATCTTGTGTAGTGGGTGTAGCACATTTG | 69.9 |
| CAGGGTATAGACCGCTGAGGCAAGTGCCGTTAATGG | 52 |

Study 2
Target: RNA binding protein fox-1 homolog 2, RRM domain, GST-SBP tag (RBFOX2, Homo sapiens, UniProt O43251-10, residues 100-194)
Method: RNA Bind-n-Seq
Form: RNA
Sample: in vitro
Concentration: 365 nM
Notes: natural RNA segment, single round, ends assumed
Baseline: no-protein control
Direction: higher = stronger binding
Shared flanks, not repeated: GGGAGUUCUACAGUCCGACGAUC … UGGAAUUCUCGGGUGCCAA
Target sequence (chain): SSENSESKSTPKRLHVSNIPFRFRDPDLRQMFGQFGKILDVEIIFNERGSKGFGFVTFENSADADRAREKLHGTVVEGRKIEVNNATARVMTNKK
| Sequence | RBNS enrichment (R) |
| --- | --- |
| AAGGAGCAGGCGGAGGGGAGUACACUUUCAUGUGAUUUAAUUUUGAUCCUGCCCUCUCCAGCUGCUCCUUCAAAAGAUACAUCAAAAGAUAGAAACUCUGGGCUGGGCAC | 0.303 |
| UAAUUGGUUUGUAUAUGUUUGUGAGAUCUAGCUUCUGAGGAAUCUCAUACAUAGUAGGAACCAUCAUAGAGUAAAGCUUGUAGCAGAAAAAUUGGAAGGGUUUUGAGAUA | 1.87 |
| UCUUCCUGUGCUCCUUGAUCACCUGAGCUGCCUCAGAUUCCAUUUGGUCCUCUCCUUCCUGGAAGGCUUCCUUUUAUGUUUUGUUUUAAUCCCAAAUGUCUGAAUGUUUU | 0.895 |
| AAGUCCACUAACUGUUCAAAGAUAAGGAGCAGUGCCUAUUCUCAAGAGCAGCCAUGCCAUGUACUCCUUUGUUCCUAUCUGGGAAGGUUGUUGACGGUACUGACCAAGCA | 1.03 |
| AAGCCUGACCCCUUGCUUCCUCCCCGCCCCCCAGUGCGUUCUGUGAUCGCCAAGUUCAAAGCUGUGCACAUGUGGACACUCAAUAAAUGUUUAUUGGUGAUGAGAAGCCU | 0.225 |
| AGUGAAUGGAAAACCUGGGAGAGGAAAGGGUGGACAGAAUUCAAGUCUGCUUCUGUCCCAGCCACAUCCACUUGUCAAUAAAGGCCUUCUGUACCUGACUUUGGGCAACA | 0.281 |
| AAGUCAGAGACAUUUUGAGGUGGUUACUACAGAUUACUGUUUCACAUUGUUUUCCUCACUGGACAGGACUGACAGGAUUACGGGGGUGGUUCCUUUAACUCUUCACCAAG | 0.299 |
| CAUGAAGGUGGUUGUGAUUAAGAAGAUGGUUUUGUUAUUAAAUAGCAUUAAACUGGAAUUGACAAGAGUGUUGAGCAUCCCUGUCUAACCUGCUCUUUCUCUUUGGUGCC | 0.352 |
| AGGGGAUCCUGAAGCUGAUAUAAAUAAGUCUAGCUCUAUAAUCCCCAAGUUCUAAAAGUUAUGGUUAGAUGCUAUUCUGUGGGUUGCUUUGAUAAUUCUUACUAACACAG | 0.869 |

Study 3
Target: RING finger protein unkempt homolog, zinc fingers 1-6, GST-SBP tag (UNK, Homo sapiens, UniProt Q9C0B0, residues 30-357)
UniProt Q9C0B0, sequence (30-357, looked up): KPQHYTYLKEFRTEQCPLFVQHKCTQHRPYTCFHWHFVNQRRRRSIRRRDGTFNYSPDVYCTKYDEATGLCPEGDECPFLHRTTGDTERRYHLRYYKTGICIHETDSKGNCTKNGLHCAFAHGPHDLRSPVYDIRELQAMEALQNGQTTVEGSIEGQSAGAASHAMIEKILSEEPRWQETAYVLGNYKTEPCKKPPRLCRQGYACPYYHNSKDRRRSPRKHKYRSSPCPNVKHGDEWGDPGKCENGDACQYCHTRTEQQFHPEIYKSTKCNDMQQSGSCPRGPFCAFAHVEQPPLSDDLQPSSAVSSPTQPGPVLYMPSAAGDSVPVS
Method: RNA Bind-n-Seq
Form: RNA
Sample: in vitro
Concentration: not given
Notes: RNA with constant flanks, human and mouse sites, ends assumed
Baseline: input RNA pool
Direction: higher = stronger binding
Shared flanks, not repeated: GGGAGUUCUACAGUCCGACGAUC … CAACAGAGGAUUGAGCAUCA
| Sequence | bound/input enrichment |
| --- | --- |
| ACAGCGUAUGACAAGCGUGCGGCGUCCAAUGCUUUCAUGAUAUGUGGGGUUCUCUAUGUGGUCAGGUCAGUGUACCAAGACAAUGAAAGCGAAGCAGGCAAGAACACCAUUGACUACAUC | 0.119 ratio |
| AAUAACGUCUAUUGAUGUAGAGGGUCAAAUGAAGAACAAAUAGUAGCUGCUGCUACUUGACUGGAAAGGUAAAUGUGUUUACAUCAUGCUGUGGAACAGCUCUAAACAGUCUAUGUAGAA | 0.281 ratio |
| AGUCCAAAUCACGCAGUGGUGCACGGCAACCUGGCUUGUGUAUACUAUGAGCAAGGCCUGAUAGAUCUGGCAAUAGACACCUACAGGCGGGCUAUCGAACUACAACCACAUUUCCCUGAU | 0.263 ratio |
| GCAUAAAAAGCACAAUUGCUAGGACUUCAGUUUUUACUUCAGACUAAAGCUACCCAAGGACUUAGCAGAUAUGGGGGUUACAUCAGUGCUGGUCAUUGUAGCCUGAGUAUACAAUCAAGC | 0.211 ratio |
| UAUACUUUGCUGAUCAACAUUCUUCAUAGUGAAGAUCUUGGAAAGGAUGUUGAAUUUGAAGUAGUUGGUGACAGCCCUGAAAAAGUGGGGCCAAAACAAGCUGAAGAUGCUGCCAAAAGC | 0.155 ratio |
| AAGGCUCUGUGUGUGUGUGUGUGUGUGUGUGUGUGUGUGUGUGUGUGUGUGUGUGUUUGUGUUUGUGUAUCUAGGAAGGCUGUGUGUGUUUGUGUAUCUAGGAAGGCUGUGUGUGUUUAU | 5.89 ratio |
| GAAGAAGCCGUGAAUAAGGUGAAAAUUCAGGCCAUGUCAGAGGUACAGAAGGCUGUAGCUGAGGCAGAGCAAAAAGCCUUUGAAGUGAUUGCAACGGAGAGAGCUCGAAUGGAGCAGACC | 0.251 ratio |
| CGUAGGCAAGUUUGAGUUUUCUUUCCUUUGAUGCAGAUGCUUGGGUUUCCACUCUGGCUGCAUUGCAGUCGGCUCCCAGCCCUGCCGGCGUGGGCACAGAGGCCAGAGGGGCUCACUUGG | 0.198 ratio |
| GCCUUUUUCCUUGUUUUCUUCUUAGUGACAGCAUUUUUUGGAACUGGAAAUAUAGCUUCUAUUAACAGCUUUGAUCUUGCCUCUGUCUAUUGCUUUCUGACUGUGUUCAGUCCUUUUAUG | 1.05 ratio |
| UGUAUCUACACUGCAGUGAUGGUGCGAAGGGUGAUCCUGGCCCAAGGAGAUAACAAGGUCGAUGACAGAGACUAUUAUGGCAACAAACGACUGGAAUUGGCAGGACAGCUCUUAUCUCUU | 0.203 ratio |
| CUAUGCCUAACAGAGCCCCAGUACAACUAUUGAGCAGAAUAGCUGUUUCCUGAGAAUUACCAUAGCUCACUGGGACUGGCACUCCCUAGAUAGAAACUGAUCCCAGUAAUAAACUUUGAU | 1.41 ratio |

Study 4
Target: Hepatocyte nuclear factor 3-alpha (Foxa1, Mus musculus, UniProt P35582, residues 1-468, full length assumed)
Method: EMSA with sequencing
Form: double-stranded DNA, one strand shown
Sample: in vitro
Concentration: 10 and 20 nM
Notes: whole designed probe, mean of two concentrations, ends assumed
Baseline: negative control set to 0
Direction: higher = stronger binding
Shared flanks, not repeated: GTGAGCGGTGCCCATTGATGGGGAAC … TTTCACTGGGATCGTGGGGAC
Target sequence (chain): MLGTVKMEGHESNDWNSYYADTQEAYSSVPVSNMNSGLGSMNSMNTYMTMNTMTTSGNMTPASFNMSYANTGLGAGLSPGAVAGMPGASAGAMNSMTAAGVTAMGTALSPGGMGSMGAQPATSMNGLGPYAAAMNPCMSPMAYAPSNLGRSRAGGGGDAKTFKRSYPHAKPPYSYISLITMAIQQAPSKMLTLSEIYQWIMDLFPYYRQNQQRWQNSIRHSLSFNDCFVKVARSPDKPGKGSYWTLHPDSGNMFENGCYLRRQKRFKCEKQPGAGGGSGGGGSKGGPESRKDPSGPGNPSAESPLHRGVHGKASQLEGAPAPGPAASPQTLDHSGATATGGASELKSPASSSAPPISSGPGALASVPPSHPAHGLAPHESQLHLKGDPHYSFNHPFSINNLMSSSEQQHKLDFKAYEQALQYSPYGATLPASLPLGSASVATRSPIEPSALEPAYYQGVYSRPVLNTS
| Sequence | normalised bound fraction |
| --- | --- |
| ATCTTCCCCCTCTTCCTTGCCCCACCAGCTCACCTTCCCGGGTATCTGCAAATAAGTATTTATTTTCAAGCCGGCATTCGTTAACCCTCTTCTGGCGCAAACTGCCAAAGTAAACAGATGAATCATGGTCCTTTGGCGACGCCAGGCTCCGGGAGAGCAAAGCACCGTGTCAGGGCCATGATCCGGGGTGGCC | 0.451 ratio |
| TGTATCCATCTGGGCAGTATCTTCTCTGGGCCTGGCCTGTCATAGGTGCTTCAGGTTTCCCCATTTGAACCAGATACCAGTCGGGTTACCGGATGTTTGCTTAAGGCTTCCTGCTAATGAGTCATAATTCCTGTGCTGCTTCCAGCTAGGACTGATCGAATCAGTCTGGATTTTCCTTGGGGTGATCCGCAGG | 0.297 ratio |
| ATGAAATGTTTATTAAGCACCTGTTATTACACACTGGGGGACCCGAAGAGTTATACAACAGCTCATTTATAAAACCTAGCAGGAGGGACACAATGTAAACATGAGCAAATGACAATAAAAATTTCATTTGAAATAAATGTAATATTTGATAAGTGTTCAAGACATTTAGAGGAGGGAGTCATCGTTGCATCCC | 0.43 ratio |
| ATCTTCCCCCGTTTCTCTCCCCCACCAGCTCACCTTCCCGGGTTATTTGCAGATAGGAAAATAAATAAAGCCGGCATTCGTTAACCCTCTTCTGGCGCAAACTGCTGTTTGCTCTGGATGAATCATGGTCCTTTGGCGACGCCAGGCTCCGGGAGAGCAAAGCACCGTGTCAGGGCCATGATCCGGGGTGGCC | 0.331 ratio |
| TTTGTCTGCTTCCTGCCTATATAACATGCATGGCTATCTAAACTCTCAAATACCCTACTACCTGGCTAGTTTAAGAGGCAAGCACTAGCAGACTTGTTTACTTTGTTTAGATTGCAGCTGCTGTCGCCCTAATGTAAAGGTAATGCCATGACCCCAAGTATCTAGGATACTCTCACTGGAAAAGCTCTGCAAA | 0.456 ratio |
| TTCCTTCTGCAGCTTTCCTCCCCAAACTCCACTGGTGCTCATGTTGACTCATCTGTCATTTTCACTTCCTTTCTGGCAGAGTAGCTGAGCTGAGCAAACAACAGAGCAGGACGACAATAGTCTGGCCTCTGCATGAAGCCACCAGTTCACAGGAAATACAGGGGGCAGAGGAACATGTTAAGTGGCACCTCAG | 0.327 ratio |

Excerpt of the above (study 1):
| Sequence | fluorescence intensity [a.u.] |
| --- | --- |
| CCCATCCGGTAGGTGCATGTGTGCCTCTGCAGGACG | 69 |
| GCACCATTTGCCCATCACGTCCAACGGTAGTGGTCC | 70.5 |
| CAGCGGATTCCCGAGCACATGGAGTCGCTGAACGGC | 63.5 |
